Measured values gathered from unrelated publications.
“And” joins repeats or separate records; there may be more than shown. ± marks the error that the study gave.

O=C(CCCCCCC(=O)Nc1cccnc1)NO gave a viability of 36.1% (HBL-1; 1 µM, 120 h).
For CC(/C=C/C(=O)NO)=C\[C@@H](C)C(=O)c1ccc(N(C)C)cc1, the inhibition was 93.4% (BT-12; cell viability, MTT; 10 µM, 72 h).
CC1=CC(=O)CC(C)(C)[C@@]1(O)/C=C/C(C)=C\C(=O)O gave a viability of 53.7% (HBL-1; 0.1 µM, 120 h).
With Nc1ncnc2c1c(-c1ccc(Oc3ccccc3)cc1)cn2C1CCCC1 the inhibition was 44% (HeLa expressing Ub(G76V)-GFP; Ub(G76V)-GFP degradation, inhibitor, cycloheximide chase; 12 µM).
C=CCn1c(=O)c2cnc(Nc3ccc(N4CCN(C)CC4)cc3)nc2n1-c1ccc2c(n1)[C@@](O)(CC)CC2: “G2/M cells in subpopulation” 64% (OVCAR-3; flow cytometry, item: pHH3-γH2Ax-; concentration not given).
For O=c1[nH]nc(OCCCc2ccc(Cl)cc2)c(NCc2cccnc2)c1Br, “log2 fold change” read 1.76 (HEK293T; RNA-seq, item: ASNS mRNA; 10 µM, 6 h; relative to: vehicle).
CCOC(=O)CSc1nc(-c2ccc(Cl)cc2)c2c(NC(=O)c3ccccc3)nnc-2[nH]1 has a cell growth of 92.6% (Hs-578T; SRB; 10 µM, NCI60 single-dose screen; relative to: untreated).
With NC(=O)C1CCCc2c1[nH]c1ccc(Cl)cc21 (racemic) the viability was 125% (HBL-1; 0.1 µM, 120 h).
Nc1cccc(-c2cc3c(Oc4cccc(O)c4)ncnc3[nH]2)c1 has an inhibition of 11% (HeLa expressing Ub(G76V)-GFP; Ub(G76V)-GFP degradation, cycloheximide chase; 12 µM).
Cn1c(Nc2nc3ccc(C(F)(F)F)cc3s2)nc2cc(C(=O)NCCOCCO)ccc21 gave a fold change of 4.05 (SH-SY5Y; RNA-seq, item: CMKLR1 mRNA; 5 µM, 5 h; relative to: untreated cells).
Nc1ccn([C@@H]2O[C@H](CO)[C@@H](O)C2(F)F)c(=O)n1 gave an ED50 of 0.0528 ± 0.0049 µM (PANC-1, compound-resistant; cell proliferation, CCK-8; 4 d; relative to: untreated).
With CC(/C=C/C(=O)NO)=C\[C@@H](C)C(=O)c1ccc(N(C)C)cc1 the viability was 80.5% (HBL-1; 0.1 µM, 120 h).
COC(=O)Nc1nc2ccc(C(=O)c3cccs3)cc2[nH]1 gave an inhibition of 80.6% (BT-12; cell viability, MTT; 10 µM, 72 h).
OCc1ccc(Nc2ccc3c(Nc4cccc(C(F)(F)F)c4)ncnc3c2)cc1: “late apoptotic cells” 5.02% (MDA-MB-231; annexin V-PE/DAPI; concentration not given, 24 h).
For O=C(O)CCNc1cc(N2CCc3ccccc3CC2)nc(-c2cccnc2)n1, the viability was 111% (HBL-1; 0.5 µM, 120 h).
Under “caspase-3 activated cells”, Nc1nc(S)nc(O)c1N=Cc1cn(-c2ccccc2)nc1-c1ccc(Cl)cc1 is recorded as 30.8% (CCRF-CEM; flow cytometry; CC50, 8 h).
For CC[S+]([O-])c1nc(-c2cccc(OCc3ccccc3)c2)cc(C(F)(F)F)n1 (centres unmarked), “cells with nuclear RelA” read 84.4% and 88.3% (HeLa Kyoto; RelA nuclear import, high content imaging; 0.5 µM, 3 h, with: 1 µM PMA, 60 min).
CC/C(=N\NC(=O)C(C)Nc1ccccc1)c1ccc(O)c(C)c1O (centres unmarked): “LATS band intensity” 0.71 ± 0.7 (SK-OV-3; Western blot; 10 µM, 3 h, 3D gellan gum culture, unit not given; relative to: DMSO).
With CCc1cc2c(N3CCN(c4nncs4)CC3)ncnc2s1 the viability was 100% (HBL-1; 1 µM, 120 h).
COc1cc2ncnc(Nc3cccc(Cl)c3)c2cc1OC gave an inhibition of 16% (HeLa expressing Ub(G76V)-GFP; Ub(G76V)-GFP degradation, cycloheximide chase; 12 µM).
For O=C(/C=C/C=C/C=C/C1CCCCC1)NC1=C[C@@](O)(/C=C/C=C/C=C/C(=O)NC2=C(O)CCC2=O)[C@@H]2O[C@@H]2C1=O, the GI50 was 16.5 µM (SNU-886; cell growth, CellTiter-Glo; 78 h).
With COc1cc2c(NC3CCN(CC4CCCCC4)CC3)nc(N3CCCN(C(C)C)CC3)nc2cc1OCCCN1CCCCC1 the viability was 112% (HBL-1; 1 µM, 120 h).
For CCn1cc(-c2cc(Cn3ccnc3)cc3c2CCN([C@H](c2cc(OC)ccn2)C2CC2)C3=O)c(C(F)(F)F)n1, the EC50 was 6.97 µM (SNU-886; cell growth, inhibitor; 120 h).

Excerpt of the above:
CC1=CC(=O)CC(C)(C)[C@@]1(O)/C=C/C(C)=C\C(=O)O gave a viability of 53.7% (HBL-1; 0.1 µM, 120 h).
With Nc1ncnc2c1c(-c1ccc(Oc3ccccc3)cc1)cn2C1CCCC1 the inhibition was 44% (HeLa expressing Ub(G76V)-GFP; Ub(G76V)-GFP degradation, inhibitor, cycloheximide chase; 12 µM).
C=CCn1c(=O)c2cnc(Nc3ccc(N4CCN(C)CC4)cc3)nc2n1-c1ccc2c(n1)[C@@](O)(CC)CC2: “G2/M cells in subpopulation” 64% (OVCAR-3; flow cytometry, item: pHH3-γH2Ax-; concentration not given).
For O=c1[nH]nc(OCCCc2ccc(Cl)cc2)c(NCc2cccnc2)c1Br, “log2 fold change” read 1.76 (HEK293T; RNA-seq, item: ASNS mRNA; 10 µM, 6 h; relative to: vehicle).
